# Assay results of several laboratories.
# Each line is one published result; not all experiments were run side by side. “And” joins repeats or separate records; there may be more than shown. Numbers after ± are the reported error.
SMILES,assay,test system,setting,quantity,value
O=[N+]([O-])c1ccc(-c2ccc(O)cc2)c2cccnc12,,"male ICR mice, plasma","intravenous, 1 mg/kg, 0.5 h",plasma concentration,18.2 ng/mL
CC1(C)C=C(CNc2ccc3c(c2)Cc2cc(Br)ccc2-3)C(C)(C)N1[O],UPLC-MS/MS,wild-type mice,"ip, 10 mg/kg, 60 min",plasma to brain ratio,0.47 ± 0.05
Cc1ccc(CNC(=O)c2cc(/C=C/C(=O)O)cc(-c3ccc4ncnn4c3)c2)cc1,,"male Balb/C mice, plasma","oral, 10 mg/kg",plasma detection time,≤ 5 min
CC[C@H](C)[C@H](NC(=O)[C@H](CCC(=O)O)NC(=O)[C@H](CO)NC(=O)[C@@H](NC(=O)[C@@H](N)CO)C(C)C)C(=O)N[C@@H](CCC(N)=O)C(=O)N[C@@H](CC(C)C)C(=O)N[C@@H](CCSC)C(=O)N[C@@H](Cc1cnc[nH]1)C(=O)N[C@@H](CC(N)=O)C(=O)N[C@@H](CC(C)C)C(=O)NCC(=O)N[C@@H](CCCCN)C(=O)N[C@@H](Cc1cnc[nH]1)C(=O)N[C@@H](CC(C)C)C(=O)N[C@@H](CC(N)=O)C(=O)N[C@@H](CO)C(=O)N[C@@H](CCSC)C(=O)N[C@@H](CCC(=O)O)C(=O)N[C@@H](CCCNC(=N)N)C(=O)N[C@H](C(=O)N[C@@H](CCC(=O)O)C(=O)N[C@@H](Cc1c[nH]c2ccccc12)C(=O)N[C@@H](CC(C)C)C(=O)N[C@@H](CCCNC(=N)N)C(=O)N[C@@H](CCCCN)C(=O)N[C@@H](CCCCN)C(=O)N[C@@H](CC(C)C)C(=O)N[C@@H](CCC(N)=O)C(=O)N[C@@H](CC(=O)O)C(=O)N[C@H](C(=O)N[C@@H](Cc1cnc[nH]1)C(=O)N[C@@H](CC(N)=O)C(=O)N[C@@H](Cc1ccccc1)C(N)=O)C(C)C)C(C)C,ELISA,"female CD-1 mice, blood plasma","subcutaneous, 10 nmol/kg, 0.167 h",plasma concentration,0.651 nM
CC[C@H](C)[C@H](NC(=O)[C@H](Cc1ccccc1)NC(=O)[C@H](CCC(=O)O)NC(=O)[C@H](CCCCNC(=O)COCCOCCNC(=O)COCCOCCNC(=O)CC[C@H](NC(=O)CCCCCCCCCCCCCCCCC(=O)O)C(=O)O)NC(=O)[C@H](C)NC(=O)[C@H](C)NC(=O)[C@H](CCC(N)=O)NC(=O)CNC(=O)[C@H](CCC(=O)O)NC(=O)[C@H](CC(C)C)NC(=O)[C@H](Cc1ccc(O)cc1)NC(=O)[C@H](CO)NC(=O)[C@H](CO)NC(=O)[C@@H](NC(=O)[C@H](CC(=O)O)NC(=O)[C@H](CO)NC(=O)[C@@H](NC(=O)[C@H](Cc1ccccc1)NC(=O)[C@@H](NC(=O)CNC(=O)[C@H](CCC(=O)O)NC(=O)C(C)(C)NC(=O)[C@@H](N)Cc1cnc[nH]1)[C@@H](C)O)[C@@H](C)O)C(C)C)C(=O)N[C@@H](C)C(=O)N[C@@H](Cc1c[nH]c2ccccc12)C(=O)N[C@@H](CC(C)C)C(=O)N[C@H](C(=O)N[C@@H](CCCNC(=N)N)C(=O)NCC(=O)N[C@@H](CCCNC(=N)N)C(=O)NCC(=O)O)C(C)C,,DIO C57BL/6J mice,"dose not given, day 28, added: GLP-1R agonist co-treatment",plasma lipase,increased
O=Cc1cc2c(cc1F)C(=O)N(C1CCC(=O)NC1=O)C2 (stereo not shown),,CD-1 mice,"intravenous, 1 mg/kg, 2 h",plasma concentration,not detected
Cc1ccc(NC(=O)c2ccc(CN3CCN(C)CC3)cc2)cc1Nc1nccc(-c2cncc(-c3oncc3C)c2)n1,,"male C57BL/6 mice, plasma","oral, 100 mg/kg once daily, 7 days",plasma accumulation ratio,1.5 to 2
COC(=O)/C=C/c1cc(C(=O)NCc2ccc(C)cc2)cc(-c2ccc3ncnn3c2)c1,,"Balb/C mice, plasma","oral, 10 mg/kg, 1 h",plasma exposure,not detected
O=S(=O)(c1ccc(-c2ccc3nccc(Nc4ccncn4)c3c2)cc1)N1CCOCC1,,"female BALB/c mice, plasma","intraperitoneal, 10 mg/kg, 0.25 h",plasma concentration,4720 ng/mL and 5090 ng/mL
Cc1cc2sc(N)nc2c2cccnc12,LC-MS,"BALB/c mice, female","intraperitoneal, 30 mg/kg, 1 h",plasma concentration,1490 ± 190 ng/mL

# Excerpt of the above:
SMILES,assay,test system,setting,quantity,value
CC1(C)C=C(CNc2ccc3c(c2)Cc2cc(Br)ccc2-3)C(C)(C)N1[O],UPLC-MS/MS,wild-type mice,"ip, 10 mg/kg, 60 min",plasma to brain ratio,0.47 ± 0.05
